Measurements from different studies.
Lines come from different studies, so protocols differ. Numbers after ± are the reported error.
UCHL1: Ubiquitin carboxyl-terminal hydrolase isozyme L1 (UCHL1, Homo sapiens, UniProt P09936)
Chain of UniProt P09936 (whole entry, looked up): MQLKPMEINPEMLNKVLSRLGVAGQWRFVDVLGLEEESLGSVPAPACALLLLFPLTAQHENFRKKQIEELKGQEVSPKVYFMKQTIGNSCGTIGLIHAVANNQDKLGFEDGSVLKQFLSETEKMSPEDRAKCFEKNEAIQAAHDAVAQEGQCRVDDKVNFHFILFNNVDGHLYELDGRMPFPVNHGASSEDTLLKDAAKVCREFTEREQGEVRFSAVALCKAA

For `CCc1ccccc1-c1c(C)[nH]c2cc(OC)c(Cl)cc2c1=O`, the Papp was 443 ×10⁻⁶ cm/s (PAMPA; pH 7.4).
`c1cncc(-c2cccc(Nc3nccc(NC4CCCCC4)n3)c2)c1`: “Papp (B to A)” 7.55 ± 2.77 ×10⁻⁶ cm/s (MDCKII-WT cells; 10 µM, pH 7.4).
`COc1cc2[nH]c(C)c(-c3ccc4nonc4c3)c(=O)c2cc1Cl` gave a Papp of 256 ×10⁻⁶ cm/s (PAMPA; pH 7.4).
`CC(C)Nc1ccnc(Nc2cccc(-c3ccccn3)c2)n1`: “Papp (B to A)” 1.16 ± 0.878 ×10⁻⁶ cm/s (MDCKII-WT cells; 10 µM, pH 7.4).
For `COc1cc2[nH]c(C)c(-c3ccc(N(C)C)cc3)c(=O)c2cc1Cl`, the Papp was 238 ×10⁻⁶ cm/s (PAMPA; pH 7.4).
`CC(C)Nc1ccnc(Nc2cccc(-c3ccncc3)c2)n1`: “Papp (B to A)” 40.7 ± 20.1 ×10⁻⁶ cm/s (MDCKII-WT cells; 10 µM, pH 7.4).
Under “Papp apical to basolateral”, `CNS(=O)(=O)Cc1ccc2[nH]cc(CCN(C)C)c2c1` is recorded as 1.87 ×10⁻⁶ cm/s (EpiIntestinal microtissues; 5 µM, 2 h, pH 6.5, basolateral pH 7.4).
`CC(C)Nc1ccnc(Nc2ccccc2-c2ccccc2)n1` — result for “Papp (B to A)”: 12.1 ± 2.96 ×10⁻⁶ cm/s (MDCKII-WT cells; 10 µM, pH 7.4).
Under “Papp apical to basolateral”, `C[C@H]1[C@H](NC(=O)/C(=N\OC(C)(C)C(=O)O)c2csc(N)n2)C(=O)N1S(=O)(=O)O` is recorded as 0.45 ×10⁻⁶ cm/s (EpiIntestinal microtissues; 5 µM, 2 h, pH 6.5, basolateral pH 7.4).
For `COc1cc2[nH]c(C)c(-c3ccc(C)cc3)c(=O)c2cc1Cl`, the Papp was < 5 ×10⁻⁶ cm/s (PAMPA; pH 7.4).
`COc1cc(CC2NC(=O)CN(Cc3ccccc3)C2=O)c(I)c(OC)c1` (stereo not drawn): “Papp A to B” 161 ± 9.17 ×10⁻⁶ cm/s (bEnd.3 Transwell BBB model; 10 µg/mL, 120 min, 37 °C).
`CC#CC(=O)N1C[C@@H]2CN(S(=O)(=O)c3ccc(OC)cc3)C[C@H](C1)O2` has a labelling of 12.7% (UCHL1; covalent, intact protein LC-MS; 12.5 µM).
Under “Papp (B to A)”, `CCCCCCOC(=O)NC(=N)c1ccc(NCc2nc3cc(C(=O)N(CCC(=O)OCC)c4ccccn4)ccc3n2C)cc1` is recorded as 0.14 ×10⁻⁶ cm/s (human EpiIntestinal microtissues; 5 µM, 2 h).
The Papp of `C[C@@H]1O[C@@H](O[C@H]2[C@H](Oc3cc(O)c4c(c3)O[C@H](c3ccc(O)cc3)CC4=O)O[C@H](CO)[C@@H](O)[C@@H]2O)[C@H](O)[C@H](O)[C@H]1O` is reported as 1.4 ± 1.5 ×10⁻⁶ cm/s (artificial membrane diffusion cell; 50 mg/mL, 480 min, pH 6.8).
`COc1cc(C=C(C#N)C(=O)Nc2ccc3c(c2)OCCO3)ccc1O` has a labelling of 14.9% (UCHL1; covalent, intact protein LC-MS; 12.5 µM).
`COc1cc2[nH]c(C)c(-c3ccc(C=O)cc3)c(=O)c2cc1Cl` has a Papp of 107 ×10⁻⁶ cm/s (PAMPA; pH 7.4).
`CC(C)c1nc(N(C)S(C)(=O)=O)nc(-c2ccc(F)cc2)c1/C=C/[C@@H](O)C[C@@H](O)CC(=O)O` — result for “Papp apical to basolateral”: 2.1 ×10⁻⁶ cm/s (EpiIntestinal microtissues; 5 µM, 2 h, pH 6.5, basolateral pH 7.4).
`COC(=O)c1cccc(-c2cccc(Nc3nccc(NC4CCCCC4)n3)c2)c1` — result for “Papp (B to A)”: 0.144 ± 0.075 ×10⁻⁶ cm/s (MDCKII-WT cells; 10 µM, pH 7.4).
For `COc1cc2[nH]c(C)c(-c3c(F)cccc3F)c(=O)c2cc1Cl`, the Papp was 151 ×10⁻⁶ cm/s (PAMPA; pH 7.4).
`CC(C)Nc1ccnc(Nc2cccc(C(C)(C)C)c2)n1`: “Papp (A to B)” 1.59 ± 0.66 ×10⁻⁶ cm/s (MDCKII-WT cells; 10 µM, pH 7.4).
For `C[C@H]1O[C@@H](O[C@H]2[C@@H](O)C[C@H](O[C@H]3[C@@H](O)C[C@H](O[C@H]4CC[C@@]5(C)[C@H](CC[C@@H]6[C@@H]5C[C@@H](O)[C@]5(C)[C@@H](C7=CC(=O)OC7)CC[C@]65O)C4)O[C@@H]3C)O[C@@H]2C)C[C@H](O)[C@@H]1O`, “Papp apical to basolateral” read 2.2 ×10⁻⁶ cm/s (EpiIntestinal microtissues; 5 µM, 2 h, pH 6.5, basolateral pH 7.4).
For `COc1cc2[nH]c(C)c(-c3cccc4c3oc3ccccc34)c(=O)c2cc1Cl`, the Papp was 46 ×10⁻⁶ cm/s (PAMPA; pH 7.4).
`COc1ccccc1OCCNCC(O)COc1cccc2[nH]c3ccccc3c12` (stereo not drawn): “Papp apical to basolateral” 2.8 ×10⁻⁶ cm/s (EpiIntestinal microtissues; 5 µM, 2 h, pH 6.5, basolateral pH 7.4).
Under “Papp (A to B)”, `c1ccc(-c2cccc(Nc3nccc(NC4CCCCC4)n3)c2)nc1` is recorded as 17.3 ± 6.58 ×10⁻⁶ cm/s (MDCKII-WT cells; 10 µM, pH 7.4).
For `Nc1nc2c(ncn2COCCO)c(=O)[nH]1`, “Papp apical to basolateral” read 1.3 ×10⁻⁶ cm/s (EpiIntestinal microtissues; 5 µM, 2 h, pH 6.5, basolateral pH 7.4).
`COc1cc2[nH]c(C)c(-c3ccccc3OC(F)(F)F)c(=O)c2cc1Cl` has a Papp of 411 ×10⁻⁶ cm/s (PAMPA; pH 7.4).
`CC(C)Nc1ccnc(Nc2cccc(-c3ccccc3)c2)n1` — result for “Papp (A to B)”: 0.638 ± 0.125 ×10⁻⁶ cm/s (MDCKII-WT cells; 10 µM, pH 7.4).

A few entries again:
`COc1cc2[nH]c(C)c(-c3ccc4nonc4c3)c(=O)c2cc1Cl` gave a Papp of 256 ×10⁻⁶ cm/s (PAMPA; pH 7.4).
`CC(C)Nc1ccnc(Nc2cccc(-c3ccccn3)c2)n1`: “Papp (B to A)” 1.16 ± 0.878 ×10⁻⁶ cm/s (MDCKII-WT cells; 10 µM, pH 7.4).
For `COc1cc2[nH]c(C)c(-c3ccc(N(C)C)cc3)c(=O)c2cc1Cl`, the Papp was 238 ×10⁻⁶ cm/s (PAMPA; pH 7.4).
